Measurements collected from several papers.
Values joined by “and” are separate records of one study, mostly repeats; a detail may differ.
Organism: Trypanosoma cruzi

For `COc1ccc(Nc2c(C#N)cnc3ccc(Cl)cc23)cc1`, “IC50 fold reduction” read ~8 fold (cell viability, resazurin; Y strain trypomastigotes; added: hemin; relative to: without hemin over with hemin).
For `O=c1cc[s+]([O-])c2ccc(Cl)cc12` (racemic), the EC50 was 56.6 µM (intracellular amastigote growth; U-937, Tulahuen, β-galactosidase transfected; 72 h).
`C=C1C(=O)O[C@@H]2C[C@H](C)[C@@H]3C[C@H](O)[C@H](O)[C@@]3(C)C[C@H]12` gave a selectivity index of 2.6 (epimastigote; relative to: CC50 splenocytes over IC50 epimastigotes).
For `Cc1ccc(-c2cn3cc(C)ccc3n2)cc1`, the EC50 was > 5 µM (3T3 host cells, Tulahuen beta-galactosidase; 6 days).
`C=C1C(=O)O[C@@H]2C[C@H](C)[C@@H]3C[C@H](OC(C)=O)[C@H](OC(C)=O)[C@@]3(C)C[C@H]12`: “parasitemia AUC decrease” 10 fold (K-98 clone, mice, Chagas disease model; intraperitoneal, 1 mg/kg/day, days 11 to 15 post-infection; relative to: mock-treated mice).
`O=c1cc[s+]([O-])c2ccccc12` (single isomer, unassigned; (-)) gave an EC50 of 172 µM (intracellular amastigote growth; U-937, Tulahuen, β-galactosidase transfected; 72 h).
The EC50 of `Cc1ccc2nc(-c3ccc(F)c(F)c3)c(CO)n2c1` is reported as > 5 µM (3T3 host cells, Tulahuen beta-galactosidase; 6 days).
The inhibition of `Cc1cc2[nH]c(C(=O)Nc3ccccc3C)c(CN3CCOCC3)c2s1` is reported as < 50% (parasite growth, imaging; intracellular amastigotes in NIH3T3, Tulahuen; highest tested).
The EC50 of `Cc1ccc2nc(-c3ccccc3)c(CN3CCCCC3)n2c1` is reported as 15 µM (3T3 host cells, Tulahuen beta-galactosidase; 6 days).
For `C[n+]1cc2c3c(ccc2c2ccc4cc5c(cc4c21)OCO5)OCO3`, the selectivity index was 10 (relative to: THP-1 CC50 over T. cruzi EC50).
`CCC(=O)C[C@@H](O)C[C@@H](C)C[C@H](NC(=O)[C@@H]1C[C@H](C)CN1C(=O)/C=C/[C@@H](C)CC)C(=O)N[C@H](C(=O)NC(C)(C)C(=O)N[C@@H](CC(C)C)C(=O)N[C@@H](CC(C)C)C(=O)NC(C)(C)C(=O)NC(C)(C)C(=O)NCCC(=O)N[C@@H](C)CN(C)C)[C@H](O)C(C)C` gave a selectivity index of > 210 (C2C12, CA-I/72; relative to: CC50 C2C12 over EC50 amastigotes).
The EC50 of `O=C(Nc1cc2nc(-c3ccccc3)cn2cn1)c1ccc(F)c(F)c1` is reported as ~10 µM and 10.5 µM (3T3 host cells, Tulahuen beta-galactosidase; 6 days).
With `CC(C)C[C@@H]1NC(=S)NC1=O` the selectivity index was 15.1 and > 15 (intracellular amastigotes; relative to: LLC-MK2 CC50 over amastigote IC50).
For `C#CCO[C@H]1C[C@H]2[C@@H](C)C[C@H]3OC(=O)C(=C)[C@H]3C[C@]2(C)[C@H]1O`, the selectivity index was 7.2 (epimastigote; relative to: CC50 splenocytes over IC50 epimastigotes).
`Cc1ccc2nc(-c3ccc(F)c(F)c3)c(CN3CCN(c4ccccc4)CC3)n2c1` gave an EC50 of 1.6 µM (3T3 host cells, Tulahuen beta-galactosidase; 6 days).
The inhibition of `CCOC(=O)C(NC(=O)CN1C(=O)/C(=C/c2ccc([N+](=O)[O-])cc2)SC1=S)C(C)C` (stereo not shown) is reported as 21% (parasite growth; Vero, TULAHUEN; 100 µM, intracellular, amastigote).
